Assay results from different studies.
Every numbered part comes from another study and shows a few of its results, in no order. Substitutions count along the parent as printed.

Series 1
Target: Histone acetyltransferase KAT6A, winged helix 1, GST fusion (KAT6A, Homo sapiens, UniProt Q92794, residues 1-85)
Technique: protein binding microarray
Molecule type: double-stranded DNA, one strand shown
Matrix: in vitro
Tested at: not given
Setting: 8-mer, flanks averaged, mean of 2 arrays, mostly near background
Baseline: not given
Reading: higher = stronger binding
Residues (chain): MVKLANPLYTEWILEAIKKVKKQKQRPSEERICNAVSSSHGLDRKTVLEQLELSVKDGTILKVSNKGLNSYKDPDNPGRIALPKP
| Sequence | E-score |
| --- | --- |
| GACTCGAA | -0.0256 |
| AGCACACA | -0.254 |
| GTCGGTAA | 0.225 |
| CCCCGGGA | 0.309 |
| CAGGCAAG | -0.0943 |
| AGAGGGGC | -0.24 |
| ATCGGTAG | 0.161 |
| GTTAATAA | -0.0395 |

Series 2
Target: Sal-like protein 4, full length isoform A (SALL4, Homo sapiens, UniProt Q9UJQ4, residues 1-1053)
UniProt Q9UJQ4, sequence (whole entry, looked up): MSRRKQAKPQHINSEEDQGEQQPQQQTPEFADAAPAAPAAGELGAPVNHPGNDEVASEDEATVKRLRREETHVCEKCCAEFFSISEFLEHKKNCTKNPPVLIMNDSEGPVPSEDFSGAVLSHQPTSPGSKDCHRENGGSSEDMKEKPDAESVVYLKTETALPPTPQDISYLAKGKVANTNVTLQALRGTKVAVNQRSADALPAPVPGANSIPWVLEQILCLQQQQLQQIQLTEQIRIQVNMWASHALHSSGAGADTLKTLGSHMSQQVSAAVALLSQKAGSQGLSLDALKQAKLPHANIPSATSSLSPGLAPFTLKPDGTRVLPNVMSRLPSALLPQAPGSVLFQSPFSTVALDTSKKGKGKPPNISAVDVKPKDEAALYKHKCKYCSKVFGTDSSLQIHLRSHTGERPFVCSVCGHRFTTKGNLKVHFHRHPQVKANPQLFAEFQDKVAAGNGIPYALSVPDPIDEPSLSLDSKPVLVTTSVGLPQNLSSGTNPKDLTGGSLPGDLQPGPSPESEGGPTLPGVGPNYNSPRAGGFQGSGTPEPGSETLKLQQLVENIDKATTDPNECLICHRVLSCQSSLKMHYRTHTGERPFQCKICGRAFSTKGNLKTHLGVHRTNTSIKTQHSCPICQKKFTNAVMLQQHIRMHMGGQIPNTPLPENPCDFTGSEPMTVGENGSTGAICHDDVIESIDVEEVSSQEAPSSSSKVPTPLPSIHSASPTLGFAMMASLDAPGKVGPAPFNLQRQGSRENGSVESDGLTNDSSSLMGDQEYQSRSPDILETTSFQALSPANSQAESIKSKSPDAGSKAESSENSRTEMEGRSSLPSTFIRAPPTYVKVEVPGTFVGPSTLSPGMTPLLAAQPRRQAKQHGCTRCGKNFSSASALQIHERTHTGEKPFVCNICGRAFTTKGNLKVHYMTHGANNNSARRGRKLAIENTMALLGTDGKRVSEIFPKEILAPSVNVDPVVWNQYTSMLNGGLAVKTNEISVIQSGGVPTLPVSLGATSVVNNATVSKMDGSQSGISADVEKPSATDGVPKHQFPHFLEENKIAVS
Technique: universal PBM
Molecule type: double-stranded DNA, one strand shown
Matrix: in vitro
Tested at: 600 nM
Setting: 8-mer, flanks averaged, mean of replicates
Reading: higher = stronger binding
| Sequence | E-score |
| --- | --- |
| CATTCTTA | 0.158 |
| CCATGGGG | -0.303 |
| CCCGACGC | -0.404 |
| GTGACAAA | 0.0445 |
| CGTTCTAC | -0.0525 |
| ACTGTAGC | -0.035 |
| AGAGGGTG | -0.214 |
| CAGAGTGC | -0.14 |
| ATCCGAGC | -0.085 |

Series 3
Target: CCNE1, cyclin fold, Cln2 fusion (human)
Technique: yeast growth competition, sequencing
Matrix: yeast
Setting: weak parent motif
Baseline: not given
Reading: higher = stronger binding
Parent: CDC6 docking peptide (human); TLKGRRLVFDNQL
| Substitution | normalised enrichment score |
| --- | --- |
| TLKGRRLVFDNLL [Q12L] | 1.12 |
| TLKGRRLVFPNQL [D10P] | -0.759 |
| TLKGARAVFDNQL [R5A L7A] | 0.463 |
| TLKGRELVFDNQL [R6E] | -1.07 |
| TGKGRRLVFDNQL [L2G] | 0.381 |
| TLKGRMLVFDNQL [R6M] | 1.04 |
| CLKGRRLVFDNQL [T1C] | 0.279 |
| TLKGRRLVYDNQL [F9Y] | 0.0734 |

Further values, each from its own experiment
| Substance | target | assay | test system | conditions | how to read | measurement | value |
| --- | --- | --- | --- | --- | --- | --- | --- |
| PhoQ, residues 284 288 289 292 302 303 SSCLAV | PhoP, residues 12 14 15 18 19 NHFIF (Escherichia coli, UniProt P23836) | Sort-seq, item: YFP reporter | E. coli | PhoQ-PhoP variant library, added: 10 µM Mg2+ | baseline: high Mg2+ state, higher = stronger signaling | fold induction | 4.18 |
